Measurements gathered from unrelated publications.
Lines come from different studies, so protocols differ. ± gives the spread as reported.
OPRL1: Nociceptin receptor (OPRL1, Homo sapiens, UniProt P41146)
rep nsp14 with nsp10: Replicase polyprotein 1ab, nsp14 with nsp10 (rep, Severe acute respiratory syndrome coronavirus 2, UniProt P0DTD1)
Secreted effector protein C403A/D356A: Secreted effector protein (Yersinia pestis, UniProt O68720, C403A/D356A)

Sequences of proteins named here, by UniProt entry; tags and fusion partners are left off. A line that says so, or that is headed by a name, gives the form on record, which may keep a tag or linker. Residues count along the entry.
UniProt P41146, whole entry: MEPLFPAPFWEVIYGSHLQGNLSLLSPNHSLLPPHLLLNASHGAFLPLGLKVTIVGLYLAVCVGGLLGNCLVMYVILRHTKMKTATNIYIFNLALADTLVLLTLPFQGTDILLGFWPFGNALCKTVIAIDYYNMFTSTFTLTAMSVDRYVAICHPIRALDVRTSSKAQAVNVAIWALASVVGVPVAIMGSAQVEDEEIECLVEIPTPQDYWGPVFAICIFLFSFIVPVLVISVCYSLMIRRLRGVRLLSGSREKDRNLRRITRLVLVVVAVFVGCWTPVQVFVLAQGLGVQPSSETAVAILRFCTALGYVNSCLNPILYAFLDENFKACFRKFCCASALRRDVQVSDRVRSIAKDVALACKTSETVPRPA
UniProt P15390, whole entry: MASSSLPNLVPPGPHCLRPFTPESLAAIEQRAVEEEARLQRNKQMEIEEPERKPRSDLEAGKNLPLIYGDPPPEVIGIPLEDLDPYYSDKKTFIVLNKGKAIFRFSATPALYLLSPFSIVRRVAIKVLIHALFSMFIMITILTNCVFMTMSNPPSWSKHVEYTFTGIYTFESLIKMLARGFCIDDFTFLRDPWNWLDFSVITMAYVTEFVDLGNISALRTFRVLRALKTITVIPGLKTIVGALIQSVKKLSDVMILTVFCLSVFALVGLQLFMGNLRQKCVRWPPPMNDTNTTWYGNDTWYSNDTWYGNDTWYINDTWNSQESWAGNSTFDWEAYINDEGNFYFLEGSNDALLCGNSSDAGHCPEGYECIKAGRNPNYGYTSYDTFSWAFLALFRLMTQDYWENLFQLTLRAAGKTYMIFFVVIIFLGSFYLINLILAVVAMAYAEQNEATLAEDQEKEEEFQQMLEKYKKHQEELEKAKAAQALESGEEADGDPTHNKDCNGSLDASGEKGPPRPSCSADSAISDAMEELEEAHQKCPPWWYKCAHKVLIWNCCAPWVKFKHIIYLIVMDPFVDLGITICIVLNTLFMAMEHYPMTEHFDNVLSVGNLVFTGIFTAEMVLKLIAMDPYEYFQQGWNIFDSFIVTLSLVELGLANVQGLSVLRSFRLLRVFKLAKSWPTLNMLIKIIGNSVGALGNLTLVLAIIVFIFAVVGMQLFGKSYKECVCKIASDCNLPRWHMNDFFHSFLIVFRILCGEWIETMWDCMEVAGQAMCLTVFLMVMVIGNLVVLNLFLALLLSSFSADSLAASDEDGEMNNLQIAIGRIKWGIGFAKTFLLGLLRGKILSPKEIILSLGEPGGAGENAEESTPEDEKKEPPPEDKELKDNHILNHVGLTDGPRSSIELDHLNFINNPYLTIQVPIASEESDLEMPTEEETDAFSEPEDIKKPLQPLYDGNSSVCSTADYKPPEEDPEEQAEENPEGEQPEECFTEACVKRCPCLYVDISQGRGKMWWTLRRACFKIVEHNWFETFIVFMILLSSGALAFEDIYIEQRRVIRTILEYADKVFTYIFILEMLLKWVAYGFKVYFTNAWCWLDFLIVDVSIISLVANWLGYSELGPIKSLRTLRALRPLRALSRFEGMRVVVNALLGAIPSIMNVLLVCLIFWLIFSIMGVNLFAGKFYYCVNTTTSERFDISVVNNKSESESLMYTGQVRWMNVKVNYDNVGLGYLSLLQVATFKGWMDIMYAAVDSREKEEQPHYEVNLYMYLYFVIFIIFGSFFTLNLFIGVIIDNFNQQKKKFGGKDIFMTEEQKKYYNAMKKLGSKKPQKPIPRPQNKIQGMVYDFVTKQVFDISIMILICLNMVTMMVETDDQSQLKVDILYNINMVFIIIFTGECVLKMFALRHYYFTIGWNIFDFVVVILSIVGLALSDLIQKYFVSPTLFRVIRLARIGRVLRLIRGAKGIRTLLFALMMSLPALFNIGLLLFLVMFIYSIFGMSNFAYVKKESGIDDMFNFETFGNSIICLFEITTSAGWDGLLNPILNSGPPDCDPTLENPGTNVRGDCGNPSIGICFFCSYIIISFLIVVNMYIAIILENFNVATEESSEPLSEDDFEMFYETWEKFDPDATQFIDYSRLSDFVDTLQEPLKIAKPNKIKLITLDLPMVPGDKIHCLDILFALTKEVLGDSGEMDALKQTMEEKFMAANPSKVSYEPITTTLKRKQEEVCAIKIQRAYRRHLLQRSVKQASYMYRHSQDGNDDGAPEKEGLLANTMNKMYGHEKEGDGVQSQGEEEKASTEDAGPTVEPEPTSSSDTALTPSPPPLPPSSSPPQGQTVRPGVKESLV
UniProt P04757, 26-499 limits assumed: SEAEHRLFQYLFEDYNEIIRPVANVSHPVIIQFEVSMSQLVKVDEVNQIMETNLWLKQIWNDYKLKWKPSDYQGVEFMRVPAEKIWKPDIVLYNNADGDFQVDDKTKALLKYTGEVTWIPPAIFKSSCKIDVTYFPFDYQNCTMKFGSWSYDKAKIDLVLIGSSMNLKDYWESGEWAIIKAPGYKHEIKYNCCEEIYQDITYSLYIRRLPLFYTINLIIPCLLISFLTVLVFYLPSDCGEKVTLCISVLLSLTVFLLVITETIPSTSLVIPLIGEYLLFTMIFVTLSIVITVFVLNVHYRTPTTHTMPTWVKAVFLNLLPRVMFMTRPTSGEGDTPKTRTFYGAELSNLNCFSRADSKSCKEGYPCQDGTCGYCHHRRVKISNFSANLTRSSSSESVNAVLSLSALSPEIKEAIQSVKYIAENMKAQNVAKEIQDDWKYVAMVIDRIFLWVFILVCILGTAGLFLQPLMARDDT
UniProt P12390, 25-500 limits assumed: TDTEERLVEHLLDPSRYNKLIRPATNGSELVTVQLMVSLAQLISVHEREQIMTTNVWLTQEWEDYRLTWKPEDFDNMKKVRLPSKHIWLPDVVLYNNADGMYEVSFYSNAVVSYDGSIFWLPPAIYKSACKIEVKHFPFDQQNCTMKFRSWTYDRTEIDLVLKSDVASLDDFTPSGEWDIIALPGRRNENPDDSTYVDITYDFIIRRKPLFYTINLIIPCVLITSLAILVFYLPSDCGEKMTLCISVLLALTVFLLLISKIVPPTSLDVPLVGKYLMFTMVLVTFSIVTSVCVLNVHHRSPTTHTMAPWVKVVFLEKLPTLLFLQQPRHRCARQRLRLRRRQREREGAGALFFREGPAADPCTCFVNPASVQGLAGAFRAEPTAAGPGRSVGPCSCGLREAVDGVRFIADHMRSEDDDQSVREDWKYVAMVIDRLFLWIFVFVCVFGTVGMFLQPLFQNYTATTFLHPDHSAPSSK
UniProt Q9Y6W6, 321-464 limits assumed: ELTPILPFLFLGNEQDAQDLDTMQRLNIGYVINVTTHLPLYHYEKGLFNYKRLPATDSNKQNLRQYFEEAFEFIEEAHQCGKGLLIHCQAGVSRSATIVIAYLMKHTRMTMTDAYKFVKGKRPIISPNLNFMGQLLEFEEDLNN
UniProt P08510, 1-655 with tags or gaps DEL6-46: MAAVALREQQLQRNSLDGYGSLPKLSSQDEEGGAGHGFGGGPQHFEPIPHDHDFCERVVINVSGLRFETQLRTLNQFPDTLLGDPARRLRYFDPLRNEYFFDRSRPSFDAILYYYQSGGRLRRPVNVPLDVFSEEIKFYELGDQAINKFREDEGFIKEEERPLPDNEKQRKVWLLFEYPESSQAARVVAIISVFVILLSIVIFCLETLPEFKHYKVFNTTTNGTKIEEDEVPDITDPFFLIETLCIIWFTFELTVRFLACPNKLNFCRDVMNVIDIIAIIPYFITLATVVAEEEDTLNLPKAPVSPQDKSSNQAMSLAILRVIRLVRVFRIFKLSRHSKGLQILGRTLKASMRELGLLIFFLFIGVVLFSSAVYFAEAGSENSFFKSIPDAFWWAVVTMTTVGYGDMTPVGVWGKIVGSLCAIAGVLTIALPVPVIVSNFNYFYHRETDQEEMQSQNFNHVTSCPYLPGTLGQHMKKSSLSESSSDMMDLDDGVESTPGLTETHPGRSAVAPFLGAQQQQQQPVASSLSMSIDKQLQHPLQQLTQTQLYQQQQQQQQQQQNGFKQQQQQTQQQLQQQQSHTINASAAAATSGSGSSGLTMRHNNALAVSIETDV
UniProt P04775, whole entry: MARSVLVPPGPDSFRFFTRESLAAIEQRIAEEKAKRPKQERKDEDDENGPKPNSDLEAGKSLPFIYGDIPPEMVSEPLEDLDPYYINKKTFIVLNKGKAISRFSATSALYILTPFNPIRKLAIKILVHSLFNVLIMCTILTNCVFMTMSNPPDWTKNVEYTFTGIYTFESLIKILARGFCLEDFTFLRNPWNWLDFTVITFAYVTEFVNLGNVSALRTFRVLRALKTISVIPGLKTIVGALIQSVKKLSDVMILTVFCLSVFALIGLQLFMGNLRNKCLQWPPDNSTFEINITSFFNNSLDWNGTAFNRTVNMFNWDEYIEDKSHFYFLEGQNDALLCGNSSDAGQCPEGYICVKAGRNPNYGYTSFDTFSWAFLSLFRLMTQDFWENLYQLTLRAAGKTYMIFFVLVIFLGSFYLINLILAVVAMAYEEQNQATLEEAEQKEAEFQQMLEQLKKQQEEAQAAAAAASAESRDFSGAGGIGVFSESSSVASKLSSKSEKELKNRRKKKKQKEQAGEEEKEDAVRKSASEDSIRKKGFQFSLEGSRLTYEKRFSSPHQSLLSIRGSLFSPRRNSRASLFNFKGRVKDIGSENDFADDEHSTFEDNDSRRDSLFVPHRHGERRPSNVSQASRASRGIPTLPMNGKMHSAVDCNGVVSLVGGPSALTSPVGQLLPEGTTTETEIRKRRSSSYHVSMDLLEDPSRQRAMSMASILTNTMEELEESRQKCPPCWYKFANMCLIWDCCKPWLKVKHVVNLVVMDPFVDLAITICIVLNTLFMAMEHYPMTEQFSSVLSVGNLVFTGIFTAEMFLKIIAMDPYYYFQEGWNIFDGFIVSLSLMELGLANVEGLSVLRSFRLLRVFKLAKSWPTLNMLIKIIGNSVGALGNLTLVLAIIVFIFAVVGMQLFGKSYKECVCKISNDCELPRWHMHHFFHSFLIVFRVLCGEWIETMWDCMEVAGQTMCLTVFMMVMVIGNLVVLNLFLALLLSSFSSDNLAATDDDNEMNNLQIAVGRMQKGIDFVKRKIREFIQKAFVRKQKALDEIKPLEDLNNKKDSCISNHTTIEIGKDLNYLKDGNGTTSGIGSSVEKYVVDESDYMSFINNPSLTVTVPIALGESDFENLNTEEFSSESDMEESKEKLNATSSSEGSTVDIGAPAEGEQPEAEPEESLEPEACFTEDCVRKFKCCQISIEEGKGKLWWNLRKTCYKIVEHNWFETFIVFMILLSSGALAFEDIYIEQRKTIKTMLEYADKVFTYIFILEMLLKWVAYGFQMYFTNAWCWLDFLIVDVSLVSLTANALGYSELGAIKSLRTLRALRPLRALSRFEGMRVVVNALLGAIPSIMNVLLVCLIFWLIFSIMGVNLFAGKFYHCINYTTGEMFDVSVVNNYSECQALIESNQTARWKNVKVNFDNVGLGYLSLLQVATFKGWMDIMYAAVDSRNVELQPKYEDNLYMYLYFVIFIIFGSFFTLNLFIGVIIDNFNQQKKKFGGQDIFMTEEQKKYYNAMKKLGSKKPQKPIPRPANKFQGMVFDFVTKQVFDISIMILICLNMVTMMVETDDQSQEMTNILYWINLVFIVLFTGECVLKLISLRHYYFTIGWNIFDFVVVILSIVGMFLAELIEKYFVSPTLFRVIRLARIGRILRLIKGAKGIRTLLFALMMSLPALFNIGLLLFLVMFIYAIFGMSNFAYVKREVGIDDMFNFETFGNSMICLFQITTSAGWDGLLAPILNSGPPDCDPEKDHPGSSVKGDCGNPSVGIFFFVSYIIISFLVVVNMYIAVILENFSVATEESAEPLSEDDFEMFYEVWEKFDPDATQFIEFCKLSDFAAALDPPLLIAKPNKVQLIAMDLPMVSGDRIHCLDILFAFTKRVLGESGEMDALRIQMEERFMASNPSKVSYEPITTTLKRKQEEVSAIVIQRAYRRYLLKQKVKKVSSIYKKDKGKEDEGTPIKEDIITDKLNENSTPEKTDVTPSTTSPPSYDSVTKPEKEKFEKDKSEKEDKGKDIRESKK
UniProt O42275, whole entry, looked up: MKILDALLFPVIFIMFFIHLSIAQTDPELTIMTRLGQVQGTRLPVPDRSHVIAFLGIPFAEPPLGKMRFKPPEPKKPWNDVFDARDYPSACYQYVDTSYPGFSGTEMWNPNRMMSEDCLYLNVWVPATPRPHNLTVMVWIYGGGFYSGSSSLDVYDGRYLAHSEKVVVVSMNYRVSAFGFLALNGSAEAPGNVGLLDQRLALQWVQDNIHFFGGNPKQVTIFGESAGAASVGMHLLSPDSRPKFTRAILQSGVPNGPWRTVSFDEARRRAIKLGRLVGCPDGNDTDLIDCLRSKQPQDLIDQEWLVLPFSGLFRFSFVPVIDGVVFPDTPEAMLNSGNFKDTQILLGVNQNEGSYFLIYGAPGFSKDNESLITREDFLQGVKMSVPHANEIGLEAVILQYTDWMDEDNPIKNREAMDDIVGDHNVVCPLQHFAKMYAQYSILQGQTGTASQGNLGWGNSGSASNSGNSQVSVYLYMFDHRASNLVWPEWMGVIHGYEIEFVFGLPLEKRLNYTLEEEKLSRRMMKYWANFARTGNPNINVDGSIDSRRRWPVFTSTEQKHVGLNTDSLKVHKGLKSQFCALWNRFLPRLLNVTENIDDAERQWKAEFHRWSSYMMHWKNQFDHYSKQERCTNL

C[C@@H]1NC(=O)[C@H](Cc2c[nH]c3ccccc23)NC(=O)[C@H](CCCCN)NC(=O)COCCNC(=O)[C@@H]2CSSC[C@@H](C(N)=O)NC(=O)[C@H](CSSC[C@H](N)C(=O)N[C@@H](CC(N)=O)C(=O)N2)NC(=O)[C@H](CCCNC(=N)N)NC(=O)[C@H](CO)NC(=O)[C@H](Cc2c[nH]cn2)NC(=O)[C@H](CC(=O)O)NC(=O)[C@H](CCCNC(=N)N)NC1=O
block (Sodium channel protein type 4 subunit alpha (Scn4a, Rattus norvegicus, UniProt P15390); sodium current, blocker, two-electrode voltage clamp; Xenopus oocytes; 1 µM): 70 ± 2%

CC(C)C[C@@H]1NC(=O)[C@H](C(C)C)NC(=O)[C@H](C)NC(=O)[C@@H]2CSSC[C@H](NC(=O)CN)C(=O)N[C@@H](CSSC[C@@H](C(N)=O)NC(=O)[C@H](Cc3ccc(O)cc3)NC1=O)C(=O)N[C@@H](CO)C(=O)N[C@@H]([C@@H](C)O)C(=O)N1CCC[C@H]1C(=O)N1CCC[C@H]1C(=O)N2
selectivity ratio (Neuronal acetylcholine receptor; alpha3/beta2 (Rattus norvegicus, UniProt P04757+P12390); antagonist, membrane potential fluorescence; HEK293; reference: alpha3beta4 over alpha3beta2 IC50): 10 fold

O=C1Cc2ccccc2N1C1CCN([C@@H]2CC[C@H]3CCCc4cccc2c43)CC1
potency ratio (OPRL1; β-arrestin 2 recruitment, BRET; HEK293; reference: compound EC50 over N/OFQ EC50): 105

Cc1ccc(S(=O)(=O)Nc2cccc(C(=O)NC3CCN(c4ncnc5[nH]cnc45)CC3)c2)cc1
inhibition (Replicase polyprotein 1ab, nsp14 ExoN with nsp10 (rep, Severe acute respiratory syndrome coronavirus 2, UniProt P0DTD1); ExoN activity; 0.04883 µM): 10.1%

O=C(Nc1cccc(Cl)c1)Nc1nonc1NC(=O)Nc1cccc(Cl)c1
luciferase signal (Replicase polyprotein 1ab, nsp4-nsp5-nsp6 precursor (rep, Severe acute respiratory syndrome coronavirus 2, UniProt P0DTD1); reporter gene, cell-based primary screen): 10.8%

O=C(O)C(O)=CC(=O)C1(Cc2ccc(Cl)cc2)CCN(C(=O)OCc2ccccc2)CC1
inhibition (rep nsp14 with nsp10; exonuclease activity, inhibitor; 20 µM): 11%

COc1cc(Cc2cnc(N)nc2N)cc(/C=C/C(=O)N2N=Cc3ccccc3[C@@H]2C=C(C)C)c1OC
affinity gain (Dihydrofolate reductase (dfrA, Bacillus anthracis, UniProt Q81R22); reference: S-enantiomer over R-enantiomer): 100 fold

CC[C@H](C)[C@H](NC(=O)[C@H](C)NC(=O)[C@H](CCC(=O)O)NC(=O)[C@H](CCC(=O)O)NC(=O)[C@H](CC(C)C)NC(=O)[C@H](CCCCN)NC(=O)[C@H](CCCCN)NC(=O)[C@H](CCSC)NC(=O)[C@H](CCC(=O)O)NC(=O)[C@H](Cc1ccc(O)cc1)NC(=O)[C@H](CCC(=O)O)NC(=O)[C@H](CC(C)C)NC(=O)[C@H](CC(=O)O)NC(=O)[C@H](CC(C)C)NC(=O)[C@H](Cc1ccccc1)NC(=O)[C@@H](NC(=O)[C@@H](NC(=O)[C@H](CC(N)=O)NC(=O)[C@@H](NC(=O)[C@H](CCC(N)=O)NC(=O)[C@H](CC(=O)O)NC(=O)[C@H](CC(C)C)NC(=O)[C@@H](N)CO)[C@@H](C)CC)C(C)C)[C@@H](C)O)C(=O)N[C@@H](CCCCN)C(=O)N[C@@H](CCCCN)C(=O)N[C@@H](CC(C)C)C(=O)N[C@@H](CCC(=O)O)C(=O)N[C@@H](CCC(=O)O)C(=O)N[C@@H](CO)C(=O)N[C@@H](Cc1ccc(O)cc1)C(=O)N[C@H](C(=O)N[C@@H](CC(=O)O)C(=O)N[C@@H](CC(C)C)C(=O)N[C@@H](CCCCN)C(=O)N[C@@H](CCC(=O)O)C(=O)N[C@@H](CC(C)C)C(=O)O)[C@@H](C)CC
IC50 (SARS-CoV-2 Gamma pseudovirus; pseudovirus infection, inhibitor, luciferase; Caco-2; 24 h, dual mutations): 1360 nM

CC[C@H](C)[C@H](NC(=O)[C@H](CC(C)C)NC(=O)[C@H](Cc1ccc(OP(=O)(O)O)cc1)NC(=O)[C@H](CCC(=O)O)NC(=O)[C@H](CC(=O)O)NC(=O)[C@H](C)NC(=O)[C@H](CC(=O)O)NC(=O)[C@@H](NC(=O)[C@H](CC(C)C)NC(=O)CCCC[C@@H]1SC[C@@H]2NC(=O)N[C@@H]21)C(C)C)C(=O)N1CCC[C@H]1C(=O)N[C@@H](CCC(N)=O)C(=O)N[C@@H](CCC(N)=O)C(=O)NCC(=O)O
koff (Secreted effector protein C403A/D356A; surface plasmon resonance): 0.018 s⁻¹

CC(=O)N[C@@H](Cc1c[nH]cn1)C(=O)N[C@H](C(=O)NCC(=O)N[C@@H](Cc1ccccc1)C(=O)N[C@@H](CC(C)C)C(=O)N[C@H](C(=O)N[C@@H](CCC(=O)O)C(=O)N[C@@H](Cc1cc(=O)oc2cc(OP(=O)(O)O)ccc12)C(=O)N[C@H](C(=O)N[C@@H](C)C(=O)N[C@H](C(=O)N[C@@H](CCCNC(=N)N)C(=O)N[C@@H](Cc1c[nH]c2ccccc12)C(N)=O)[C@@H](C)O)C(C)C)[C@@H](C)O)[C@@H](C)O
kcat (Dual specificity protein phosphatase 10 (Homo sapiens, UniProt Q9Y6W6); substrate; pH 6, ERK1/2 activation-loop peptide): 0.16 s⁻¹

CC(C)[C@H]1CC[C@@H](N2CCC3(CC2)C(=O)NCN3c2ccccc2)CC1
Emax (OPRL1; G protein activation, GTPγS binding; CHO membranes; unit not given; reference: basal binding): 5.11 ± 0.47

CC[C@H](C)[C@@H]1NC(=O)[C@H](CCCNC(=N)N)NC(=O)[C@@H](N)CSSC[C@@H]2NC(=O)[C@@H]3CSSC[C@@H](C(=O)N[C@H](C(=O)O)C(C)C)NC(=O)[C@H](CCCCN)NC(=O)[C@H](CC(N)=O)NC(=O)[C@H](Cc4ccccc4)NC(=O)[C@H](CCCNC(=N)N)NC(=O)[C@H](CC(N)=O)NC(=O)[C@H](CSSC[C@H](NC(=O)[C@H](CCCCN)NC(=O)[C@H](CCC(N)=O)NC(=O)[C@H](CC(N)=O)NC(=O)[C@@H]4C[C@@H](O)CN4C1=O)C(=O)N[C@@H](Cc1ccccc1)C(=O)N[C@@H](CCC(N)=O)C(=O)N[C@@H](Cc1c[nH]cn1)C(=O)N[C@@H](CC(C)C)C(=O)N[C@@H](CC(=O)O)C(=O)N[C@@H](CC(=O)O)C(=O)N3)NC(=O)[C@H](CCCCN)NC(=O)[C@H](CCCNC(=N)N)NC(=O)[C@H](CO)NC2=O
residence time (Sh (Drosophila melanogaster, UniProt P08510, del6-46); potassium current, patch clamp; concentration not given, -40 mV): ~150 ms

CNC(=O)CC1C(=O)N(C2CCN([C@H]3CC[C@@H](C(C)C)CC3)CC2)c2ccccc21 (stereo partly drawn)
concentration ratio (OPRL1; calcium mobilization; CHO with Gαqi5; reference: compound over N/OFQ EC50): 1

O=P(O)(O)C(F)(F)c1cccc(-c2ccc(CO/N=C/c3ccco3)cc2)c1
kon (Secreted effector protein C403A/D356A; surface plasmon resonance; immobilized protein): 159 M⁻¹ s⁻¹

O=C(O)C(O)=CC(=O)c1cc(Oc2ccccc2)cc(Oc2ccccc2)c1
inhibition (rep nsp14 with nsp10; exonuclease activity, inhibitor; 20 µM): 8%

CN1CC(=O)N[C@@H](Cc2c[nH]c3ccccc23)C(=O)N[C@H]2CSSC[C@H](N)C(=O)N[C@H]3CSSC[C@H](NC(=O)[C@H](CCCNC(=N)N)NC(=O)[C@H](CO)NC(=O)[C@H](Cc4c[nH]cn4)NC(=O)[C@H](CC(=O)O)NC(=O)[C@H](CCCNC(=N)N)NC2=O)C(=O)N[C@H](C(N)=O)CSSC[C@H](NC(=O)[C@H](CC(N)=O)NC3=O)C(=O)N[C@@H](CO)C(=O)N[C@@H](CO)C1=O
kobs (Sodium channel protein type 2 subunit alpha (Scn2a, Rattus norvegicus, UniProt P04775); sodium current, blocker, two-electrode voltage clamp; Xenopus oocytes; 10 µM): 1.1 ± 0.5 min⁻¹

O=C(C1CCNC1)N1CCc2c(F)cc(F)cc21 (stereo not drawn)
Vmax (Acetylcholinesterase (ache, Electrophorus electricus, UniProt O42275); enzyme activity, inhibitor, Ellman; 560 µM, added: acetylthiocholine iodide): 0.02 absorbance units/min

CC(=O)N[C@@H](Cc1c[nH]cn1)C(=O)N[C@@H](CC(=O)O)C(=O)NCC(=O)N[C@@H](CC(C)C)C(=O)N[C@@H](Cc1ccc(O)cc1)C(=O)N[C@@H](CCC(N)=O)C(=O)NCC(=O)N[C@@H](CC(C)C)C(=O)N[C@@H](CO)C(=O)N[C@H](C(=O)N[C@@H](C)C(=O)N[C@H](C(=O)N[C@@H](CCCCN)C(=O)N[C@@H](CC(=O)O)C(=O)N[C@H](C(=O)N[C@@H](Cc1cc(=O)oc2cc(OP(=O)(O)O)ccc12)C(=O)N[C@@H](CC(=O)O)C(=O)N[C@@H](C)C(=O)N[C@@H](CC(C)C)C(=O)N[C@@H](Cc1c[nH]cn1)C(N)=O)[C@@H](C)O)[C@@H](C)O)[C@@H](C)O
kcat/Km (Tyrosine-protein phosphatase non-receptor type 3 (PTPN3, Homo sapiens, UniProt P26045); substrate; pH 6, TCR zeta-chain ITAM peptide): 57.7 s⁻¹ mM⁻¹

CN1C(=O)CCc2cc(C(=O)NCC=CS(C)(=O)=O)ccc21
kinact/KI (Polyprotein P1234, nsP2 protease (Chikungunya virus, UniProt Q5XXP4); time-dependent inhibition): 1100 ± 60 M⁻¹ s⁻¹

CC[C@H](C)[C@H](NC(=O)[C@H](C)NC(=O)[C@H](CCC(=O)O)NC(=O)[C@H](CCC(=O)O)NC(=O)[C@H](CC(C)C)NC(=O)[C@H](CCCCN)NC(=O)[C@H](CCCCN)NC(=O)[C@H](CCSC)NC(=O)[C@H](CCC(=O)O)NC(=O)[C@H](Cc1ccc(O)cc1)NC(=O)[C@H](CCC(=O)O)NC(=O)[C@H](CC(C)C)NC(=O)[C@H](CC(=O)O)NC(=O)[C@H](CC(C)C)NC(=O)[C@H](Cc1ccccc1)NC(=O)[C@H](Cc1ccc(O)cc1)NC(=O)[C@@H](NC(=O)[C@H](CC(N)=O)NC(=O)[C@@H](NC(=O)[C@H](CCC(N)=O)NC(=O)[C@H](CC(=O)O)NC(=O)[C@H](CC(C)C)NC(=O)[C@@H](N)CO)[C@@H](C)CC)C(C)C)C(=O)N[C@@H](CCCCN)C(=O)N[C@@H](CCCCN)C(=O)N[C@@H](CC(C)C)C(=O)N[C@@H](CCC(=O)O)C(=O)N[C@@H](CCC(=O)O)C(=O)N[C@@H](CO)C(=O)N[C@@H](Cc1ccc(O)cc1)C(=O)N[C@H](C(=O)N[C@@H](CC(=O)O)C(=O)N[C@@H](CC(C)C)C(=O)N[C@@H](CCCCN)C(=O)N[C@@H](CCC(=O)O)C(=O)N[C@@H](CC(C)C)C(=O)O)[C@@H](C)CC
IC50 (SARS-CoV-2 Delta pseudovirus; pseudovirus infection, inhibitor, luciferase; Caco-2; 24 h): 291 nM

CCOP(=O)(OCC)ON1C(=O)c2cccc3cccc(c23)C1=O
IC50 (Acetylcholinesterase (Ache, Rattus norvegicus, UniProt P37136); enzyme activity, inhibitor; rat, postnatal day 1, rat brain homogenate; 15 min, 37 °C): 62 nM

Excerpt of the above:
CC(C)[C@H]1CC[C@@H](N2CCC3(CC2)C(=O)NCN3c2ccccc2)CC1
Emax (OPRL1; G protein activation, GTPγS binding; CHO membranes; unit not given; reference: basal binding): 5.11 ± 0.47

CC[C@H](C)[C@@H]1NC(=O)[C@H](CCCNC(=N)N)NC(=O)[C@@H](N)CSSC[C@@H]2NC(=O)[C@@H]3CSSC[C@@H](C(=O)N[C@H](C(=O)O)C(C)C)NC(=O)[C@H](CCCCN)NC(=O)[C@H](CC(N)=O)NC(=O)[C@H](Cc4ccccc4)NC(=O)[C@H](CCCNC(=N)N)NC(=O)[C@H](CC(N)=O)NC(=O)[C@H](CSSC[C@H](NC(=O)[C@H](CCCCN)NC(=O)[C@H](CCC(N)=O)NC(=O)[C@H](CC(N)=O)NC(=O)[C@@H]4C[C@@H](O)CN4C1=O)C(=O)N[C@@H](Cc1ccccc1)C(=O)N[C@@H](CCC(N)=O)C(=O)N[C@@H](Cc1c[nH]cn1)C(=O)N[C@@H](CC(C)C)C(=O)N[C@@H](CC(=O)O)C(=O)N[C@@H](CC(=O)O)C(=O)N3)NC(=O)[C@H](CCCCN)NC(=O)[C@H](CCCNC(=N)N)NC(=O)[C@H](CO)NC2=O
residence time (Sh (Drosophila melanogaster, UniProt P08510, del6-46); potassium current, patch clamp; concentration not given, -40 mV): ~150 ms
